Measurements gathered from unrelated publications.
Each numbered part is a random draw from the data of one study; scales do not carry over between parts.

Sample 1 — technique: competition protein-binding microarray; form: double-stranded DNA, one strand shown; matrix: in vitro; tested at: 2 µM; added: Cbf1 competitor, 0.05 µM; direction: higher = stronger binding; all sequences stand within: … GTCTTGATTCGCTTGACGCTGCTG
Target: Phosphate system positive regulatory protein PHO4, full length, GST-tagged (PHO4, Saccharomyces cerevisiae, UniProt P07270, residues 1-312)
Setting: whole 60-bp probe, lowest competitor level
Target sequence (chain): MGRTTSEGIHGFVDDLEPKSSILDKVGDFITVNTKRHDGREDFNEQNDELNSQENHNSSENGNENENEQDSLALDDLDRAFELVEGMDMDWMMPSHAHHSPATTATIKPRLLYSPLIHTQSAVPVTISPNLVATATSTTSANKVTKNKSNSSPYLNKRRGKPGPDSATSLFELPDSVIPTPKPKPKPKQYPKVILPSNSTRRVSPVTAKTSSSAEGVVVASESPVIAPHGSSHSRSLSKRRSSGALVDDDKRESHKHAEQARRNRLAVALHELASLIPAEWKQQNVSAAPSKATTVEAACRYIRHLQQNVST
| Sequence | fluorescence intensity [a.u.] |
| --- | --- |
| AAATTACTAAGTTGCCTCGTGGGTGACGCCGTATGA | 11500 |
| ATATTAAAAAACCATCACGTGGTGAAAAAAAAAATT | 19800 |
| GTCTTGTCTCATTGATTCGTGGGTGTCCCCACTTCA | 5990 |
| CGTCCTAGTGATTGCATGGTGGGTGCCATGAGGAAG | 7530 |
| TGCGCAACAACTTGGTCAGTGGGTGTATGTCTAGAA | 4290 |
| TAAGAAAATACCGGTCATATGACAACAGAGACAAGA | 3340 |
| TCTTACTGCCCTTATAATGTGACGCCAACTTTAGCG | 3460 |
| CGGGGTTAAGTTTTTCACGTGTATTGCTTGCAGCAG | 12300 |
| CTGGAGGGCGTAACGGCCGTGATGGGGCCTGAGCTC | 2990 |
| AAATTACTAAGTTGTCACTTCACTTACCCCGTATGA | 3430 |
| CTTTCCCGATCTTGTTAAGTGGGTGTAGCACATTTG | 4600 |
| TGTGAGGATTATTGTCATGTGAAGGCGAGATAGGTA | 6110 |
| CTCTGAGTTTTTTGACACATGCCAGAAGAAACGTTA | 9160 |
| TGACATTGCTCGAGTCACGTTCAGAAAACGAGAAGA | 9430 |
| TGCGCAACAACTTGGACCGTGGGTGTATGTCTAGAA | 8690 |
| AAAAGTTTCCCTTCTCACGTGTCCATAAAGCATCAA | 14000 |
| AAAGCGGTAATTTGCGGGGTGGGTGCAGATATCTAT | 5070 |
| CATTAAGTGCTTCCTCACGTGCCGATCTACTTCTCT | 14700 |
| CTTCTGTAAATTTTTCACGTGCGGTGAAGCGCCCCG | 16200 |
| CAAATGATTTATACCCACGCAAAATGACATTGCAAT | 6180 |
| CTTCTGTAAATTTGTGGCGTGGGTGGACGCGCCCCG | 6410 |
| CTTGAAACTCCTCCACGCGTGCTTTTTCTTGTTCAG | 12100 |
| ATACCAAATGTCCAGCCCGTGACGGTGCAGCAGGGT | 8950 |
| AAAGCGGTAATTTTTCACGTGACATCACATATCTAT | 12500 |
| TAGTTTGTCGCCCGTCACGTGCGATAATGCAAAATA | 15500 |

Sample 2 — technique: protein binding microarray; form: double-stranded DNA, one strand shown; matrix: in vitro; tested at: not given; reference: not given; direction: higher = stronger binding
Target: Histone acetyltransferase KAT6A, both winged helices, GST fusion (KAT6A, Homo sapiens, UniProt Q92794, residues 1-181)
Setting: 8-mer, flanks averaged, mean of 2 arrays, mostly near background
Target sequence (chain): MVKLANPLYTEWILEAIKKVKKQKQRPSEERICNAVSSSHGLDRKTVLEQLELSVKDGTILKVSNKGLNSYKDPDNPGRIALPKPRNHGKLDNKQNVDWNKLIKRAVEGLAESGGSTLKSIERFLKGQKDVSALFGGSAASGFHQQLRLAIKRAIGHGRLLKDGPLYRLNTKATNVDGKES
| Sequence | E-score |
| --- | --- |
| ATACAGCC | -0.0554 |
| CGAGATAA | -0.0832 |
| AAGAGACG | 0.0803 |
| GCAGTCCC | 0.0241 |
| CGGATGGA | 0.123 |
| AACATGTA | 0.0206 |
| CGCTAGTA | 0.185 |
| CAAGGGCC | -0.121 |
| ATTATCTG | -0.157 |
| TAGGTGGA | -0.278 |
| CGGCTGAA | 0.219 |
| ACGTTTCT | -0.251 |
| CTCACGAG | -0.106 |
| AAACACTC | -0.0399 |
| ATTGACAC | 0.0699 |
| ACTGGGAC | -0.203 |
| CCTGTCCG | 0.0645 |
| CCGTGCGC | 0.301 |
| CTTTTATC | -0.067 |

Sample 3 — technique: protein-binding microarray; form: double-stranded DNA, one strand shown; matrix: in vitro; tested at: 2540 nM top; setting: 60-bp whole probe; added: salmon DNA 0.4 mg/ml; reference: random background probes; direction: higher = stronger binding; all sequences stand within: GCCTAGCAC … GTCTTGATTCGCTTGACGCTGCTG
Target: Interferon regulatory factor 3, full length, phosphomimetic (IRF3, Homo sapiens, UniProt Q14653, residues 1-427, S386D/S396D/S398D/S402D/T404D/S405D)
Sequence of UniProt Q14653 (whole entry, unmodified, looked up): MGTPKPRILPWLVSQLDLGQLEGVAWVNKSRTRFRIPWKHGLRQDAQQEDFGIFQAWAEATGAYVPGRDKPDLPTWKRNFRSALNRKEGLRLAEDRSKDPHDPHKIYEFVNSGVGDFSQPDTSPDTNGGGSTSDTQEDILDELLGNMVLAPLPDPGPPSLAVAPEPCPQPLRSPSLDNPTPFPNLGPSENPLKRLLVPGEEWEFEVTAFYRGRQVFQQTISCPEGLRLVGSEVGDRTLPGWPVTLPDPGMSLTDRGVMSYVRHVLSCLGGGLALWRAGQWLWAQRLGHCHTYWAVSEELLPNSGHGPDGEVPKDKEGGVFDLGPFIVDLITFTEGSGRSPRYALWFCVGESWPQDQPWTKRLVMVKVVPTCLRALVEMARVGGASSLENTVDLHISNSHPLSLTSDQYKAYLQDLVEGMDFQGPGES
| Sequence | fitted relative affinity [z-score] |
| --- | --- |
| GACGGTCGCGGACTGGGGACGTGCTAG | -0.626 |
| GACGGTATCGGTAGCGGGACGTGCTAG | 2 |
| TTAGGTTTCAGTATCGGTTAGTGCTAG | 5.69 |
| GACGGTATCGGTATCTGGACGTGCTAG | 3.93 |
| TCAGGACTGGGACTGGGTTAGTGCTAG | -0.749 |
| TTAGGACTGGCGTTTCGGTTAGTGCTA | 2 |
| TCAGTGGTCTGTTTCTGACTGTGCTAG | 1.39 |
| TTAGGTATCGACTTGCGGTTAGTGCTA | 0.579 |
| TCATTTATTTATTTTTAACTGTGCTAG | 1.33 |
| TTAGGTTTCGGTTCCGATTAGTGCTAG | 11 |
| GACGGACTGAGGACTGGGGACGTGCTA | -0.99 |
| GTTACTTTCTACTTCTCTTTGTGCTAG | 3.67 |
| CTCTGTCCCTGTTTCTACTGGTGCTAG | 0.972 |
| GACTAACTGAGTCTCGAGACGTGCTAG | -0.222 |
| TTAGAACTGAGTATGGATTAGTGCTAG | -0.341 |
| TCAATTTTGTTTTTCATACTGTGCTAG | 2.11 |
| GACGGACTGGGTATCGGGGCGTGCTAG | -0.529 |
| TCATCTTGCAGATGTCGCACTGTGCTA | 1.02 |
| GACGGTATCCTTATCCTAACGTGCTAG | 5.59 |
| TTAGGTATCCTGCTCCTTTAGTGCTAG | 1.54 |
| TTAGGACTGGGGACTGGGTTAGTGCTA | -1.03 |
| GACGGTCTTGGTATCGGGACGTGCTAG | 0.687 |
| GACGGTATCCTTCTCCCGACGTGCTAG | 7.59 |
| TCAGGTTTCCTTATCCTTTAGTGCTAG | 8.2 |
| GACGGTTCCCTTTTCCTTACGTGCTAG | 6.02 |

Sample 4 — technique: RNA Bind-n-Seq; form: RNA; matrix: in vitro; tested at: 365 nM; reference: no-protein control; direction: higher = stronger binding
Target: RNA binding protein fox-1 homolog 2, RRM domain, GST-SBP tag (RBFOX2, Homo sapiens, UniProt O43251-10, residues 100-194)
Setting: natural RNA segment, single round, ends assumed
All sequences stand within: GGGAGUUCUACAGUCCGACGAUC … UGGAAUUCUCGGGUGCCAA
| Sequence | RBNS enrichment (R) |
| --- | --- |
| AGCUACAGAGUGUGAUCCUGUCAAAAUCCCCUGAGAAAUAUUCUUAGGGGCUCACAACCAAGGUCCGGAGGCAACACAUAGUGGGAGCUCUUCCCCAGCACAGGGCAGAC | 0.423 |
| UAAGAGUUAUAACUAUGUAAACAUUGUAUAAUGAUAUGAAAUAAAACGCACAUUUAGGACAUUUUCUAAUCUGGUGGUCCUGUCGUCUGUAUGGUUCUGUUGUCGUUAUU | 0.485 |
| UUCCCUGGUUGCCUCCUGGGCCCCAUGUGGCCAGCAGAUGCUGGAGUCUGCCUGCUCAGACUAUCACCUGUACCUCCCUGAAUACCAGCGUUUAACCUUCAAGACAUCCC | 0.597 |
| ACUUUACACACUAAGUAAACACUUAUUGUCAGGUGCCUAGUCUUGAGUGAAUUGUUAGAUGUGCACUGAACUCGGGAUGUUGGGGAUUGGAGAGAGAGAAUUGCCAAAGU | 2.21 |
| UUUCUUGUUCAUUCUUACUACGUAUUUUUUGACUUAAGAAUGACAUCUUUAGAUGCAUUUCAGAGCCAAUGAUGAUAUUUGCUUUAGAUAAUUAUUAUAUUAUUAUAAAU | 1.5 |
| CUGGUCACUGGCCCUGCACACUGGGCUAUUGCUUUAUCCCUAUCCUGAGAGCAGCCCCUCCCCACCAUCCCUCCACAUGCUGCAAGGACAGACUGAAGGGCUGUGAGCAG | 0.53 |
| AAAAAAAAUAAAAUUUGAGUGGAAAUAAUGUUAUUAAACCAUUCUUCUAAUGCUUCACUUUUGAUGAUGCAGUAUGUUCCUUUAAAUCUUGGCAGAACUUUCUAAAGCUA | 0.725 |
| CCUUGAUGUAGGUGUUUCAAGUGAACUUUAGACCAACAGUUGCCCAGUGACCUGCUAAAAAGUCAACUAGCUCAGAGUUUUGCUGGCCUUUAUGUGAGAAAUCCAAGAAA | 0.548 |
| GGGCCAGGUUCCCCAGACAGCAGGAAUUGCCCCUGUUCAGAGCAGCCGGAGUUUGCUGGACCACAAGGAAGAAGAGAAGAGACUUGCAGUGAACUGUUUUUGUGCCAAGA | 0.673 |
| UGGUCACCUUCAUGGUGACCUCUCCAUUAUUCUGUCUCACUUGGAACCAUUUUCAGUUUAUUUACUAUGCAAUAGACAGUCCUUGUUUUGUACUCAGCUAGCUUUGAUUU | 0.447 |
| ACCCCUACACACCGUCCGUUCACCCCCGUCUCUUCCUUCUGCUUUUCGGUUUUUGGAAAGGGAUCCAUCUCCAGGCAGCCCACCCUGGUGGGGCUUGUUUCCUGAAACCA | 0.431 |
| UAGAACUUAGCAGAGGUUGAGCUCUGCUGCACAUUGGCAGACCAGGUCAGGAUGUCUGCAGUUGGAGAUGUAAAUAUUUUGUACAGUAAAUAAAAUGCCUACAAUAAUAA | 1.22 |

A few entries again (sample 3):
| Sequence | fitted relative affinity [z-score] |
| --- | --- |
| TTAGGACTGGCGTTTCGGTTAGTGCTA | 2 |
| TCAGTGGTCTGTTTCTGACTGTGCTAG | 1.39 |
| TTAGGTATCGACTTGCGGTTAGTGCTA | 0.579 |
| TCATTTATTTATTTTTAACTGTGCTAG | 1.33 |
| TTAGGTTTCGGTTCCGATTAGTGCTAG | 11 |
| GACGGACTGAGGACTGGGGACGTGCTA | -0.99 |
| GTTACTTTCTACTTCTCTTTGTGCTAG | 3.67 |
| CTCTGTCCCTGTTTCTACTGGTGCTAG | 0.972 |
